Assay results of several laboratories.
Numbered parts are unrelated; each lists some results of a single study.
Chain of UniProt Q99759 (whole entry, looked up): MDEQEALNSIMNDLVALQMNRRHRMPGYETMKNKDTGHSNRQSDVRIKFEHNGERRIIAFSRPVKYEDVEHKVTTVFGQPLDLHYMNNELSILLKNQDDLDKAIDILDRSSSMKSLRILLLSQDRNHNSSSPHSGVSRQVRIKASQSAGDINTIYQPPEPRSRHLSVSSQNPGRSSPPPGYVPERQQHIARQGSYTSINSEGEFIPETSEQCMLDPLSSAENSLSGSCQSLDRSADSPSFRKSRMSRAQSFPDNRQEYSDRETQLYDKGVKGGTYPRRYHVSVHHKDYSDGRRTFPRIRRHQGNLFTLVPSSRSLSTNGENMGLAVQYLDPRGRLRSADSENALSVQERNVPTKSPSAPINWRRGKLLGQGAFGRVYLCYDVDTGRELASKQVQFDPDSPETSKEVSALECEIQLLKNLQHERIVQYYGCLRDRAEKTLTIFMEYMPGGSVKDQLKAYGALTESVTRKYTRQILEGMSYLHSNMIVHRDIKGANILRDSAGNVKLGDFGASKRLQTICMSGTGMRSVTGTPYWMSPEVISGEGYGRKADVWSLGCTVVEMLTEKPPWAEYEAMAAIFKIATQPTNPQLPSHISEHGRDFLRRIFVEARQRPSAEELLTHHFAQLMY
Chain of UniProt P00519 (whole entry, unmodified, looked up): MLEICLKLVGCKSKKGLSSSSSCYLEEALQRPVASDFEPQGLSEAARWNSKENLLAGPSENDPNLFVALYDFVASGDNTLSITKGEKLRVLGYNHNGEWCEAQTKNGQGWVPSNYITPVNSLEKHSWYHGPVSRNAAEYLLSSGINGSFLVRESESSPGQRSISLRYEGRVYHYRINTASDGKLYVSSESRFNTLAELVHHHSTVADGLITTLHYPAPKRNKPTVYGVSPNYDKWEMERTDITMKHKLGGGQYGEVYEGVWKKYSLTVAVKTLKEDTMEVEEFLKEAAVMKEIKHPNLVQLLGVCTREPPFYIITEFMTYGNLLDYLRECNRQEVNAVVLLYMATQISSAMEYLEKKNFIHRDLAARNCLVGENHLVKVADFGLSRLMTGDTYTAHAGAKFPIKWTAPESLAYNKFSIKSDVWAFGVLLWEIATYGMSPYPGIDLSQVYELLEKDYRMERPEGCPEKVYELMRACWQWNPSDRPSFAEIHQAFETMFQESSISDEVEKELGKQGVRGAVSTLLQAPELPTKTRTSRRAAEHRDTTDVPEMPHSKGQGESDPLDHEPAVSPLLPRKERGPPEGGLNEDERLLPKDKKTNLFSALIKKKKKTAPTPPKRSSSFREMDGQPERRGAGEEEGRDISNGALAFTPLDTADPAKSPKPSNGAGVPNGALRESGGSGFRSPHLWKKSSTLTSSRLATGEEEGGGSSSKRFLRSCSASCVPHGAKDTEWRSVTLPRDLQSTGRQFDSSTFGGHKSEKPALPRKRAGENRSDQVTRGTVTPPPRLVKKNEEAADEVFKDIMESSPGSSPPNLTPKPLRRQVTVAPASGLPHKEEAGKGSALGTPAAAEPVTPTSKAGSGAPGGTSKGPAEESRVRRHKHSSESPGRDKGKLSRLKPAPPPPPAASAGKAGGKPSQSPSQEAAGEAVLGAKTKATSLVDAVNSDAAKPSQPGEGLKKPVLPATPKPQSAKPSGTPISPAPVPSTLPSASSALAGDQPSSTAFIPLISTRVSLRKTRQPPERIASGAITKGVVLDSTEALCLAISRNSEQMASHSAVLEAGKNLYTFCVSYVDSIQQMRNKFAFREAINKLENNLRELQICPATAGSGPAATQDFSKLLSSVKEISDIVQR
Chain of UniProt Q00537 (whole entry, looked up): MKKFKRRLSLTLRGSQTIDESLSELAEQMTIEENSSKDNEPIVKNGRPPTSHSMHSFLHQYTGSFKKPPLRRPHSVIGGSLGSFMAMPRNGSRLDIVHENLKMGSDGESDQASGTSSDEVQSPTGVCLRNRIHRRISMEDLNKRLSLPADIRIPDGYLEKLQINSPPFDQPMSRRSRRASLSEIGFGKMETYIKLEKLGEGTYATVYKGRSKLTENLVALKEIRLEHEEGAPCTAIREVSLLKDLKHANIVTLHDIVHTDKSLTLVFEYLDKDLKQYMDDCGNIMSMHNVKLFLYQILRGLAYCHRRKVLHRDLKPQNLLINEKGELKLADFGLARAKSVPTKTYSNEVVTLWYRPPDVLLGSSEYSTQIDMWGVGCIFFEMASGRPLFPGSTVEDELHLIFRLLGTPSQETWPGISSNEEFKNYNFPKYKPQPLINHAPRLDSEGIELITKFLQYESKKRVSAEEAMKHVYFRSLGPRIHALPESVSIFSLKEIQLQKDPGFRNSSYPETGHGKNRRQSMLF
Chain of UniProt O15111 (whole entry, looked up): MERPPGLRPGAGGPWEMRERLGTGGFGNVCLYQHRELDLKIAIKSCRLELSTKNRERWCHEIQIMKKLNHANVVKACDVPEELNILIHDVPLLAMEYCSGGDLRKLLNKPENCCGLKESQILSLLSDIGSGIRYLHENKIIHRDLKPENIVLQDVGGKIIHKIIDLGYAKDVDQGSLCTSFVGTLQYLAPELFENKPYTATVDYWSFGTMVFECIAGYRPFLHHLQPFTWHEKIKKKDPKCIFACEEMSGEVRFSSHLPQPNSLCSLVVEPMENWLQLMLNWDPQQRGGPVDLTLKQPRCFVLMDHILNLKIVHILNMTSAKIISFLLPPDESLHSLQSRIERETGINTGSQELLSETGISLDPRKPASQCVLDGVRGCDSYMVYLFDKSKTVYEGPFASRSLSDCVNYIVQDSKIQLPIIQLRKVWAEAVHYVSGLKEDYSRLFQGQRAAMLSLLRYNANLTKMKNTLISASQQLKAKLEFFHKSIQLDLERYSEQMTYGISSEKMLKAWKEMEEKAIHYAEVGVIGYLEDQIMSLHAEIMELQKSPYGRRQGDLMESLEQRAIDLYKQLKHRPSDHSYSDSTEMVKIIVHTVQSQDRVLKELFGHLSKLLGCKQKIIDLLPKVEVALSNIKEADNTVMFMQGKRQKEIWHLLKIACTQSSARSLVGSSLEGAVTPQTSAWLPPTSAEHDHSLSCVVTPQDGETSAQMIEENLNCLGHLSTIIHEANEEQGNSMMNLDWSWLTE
Chain of UniProt Q9Y6R4 (whole entry, looked up): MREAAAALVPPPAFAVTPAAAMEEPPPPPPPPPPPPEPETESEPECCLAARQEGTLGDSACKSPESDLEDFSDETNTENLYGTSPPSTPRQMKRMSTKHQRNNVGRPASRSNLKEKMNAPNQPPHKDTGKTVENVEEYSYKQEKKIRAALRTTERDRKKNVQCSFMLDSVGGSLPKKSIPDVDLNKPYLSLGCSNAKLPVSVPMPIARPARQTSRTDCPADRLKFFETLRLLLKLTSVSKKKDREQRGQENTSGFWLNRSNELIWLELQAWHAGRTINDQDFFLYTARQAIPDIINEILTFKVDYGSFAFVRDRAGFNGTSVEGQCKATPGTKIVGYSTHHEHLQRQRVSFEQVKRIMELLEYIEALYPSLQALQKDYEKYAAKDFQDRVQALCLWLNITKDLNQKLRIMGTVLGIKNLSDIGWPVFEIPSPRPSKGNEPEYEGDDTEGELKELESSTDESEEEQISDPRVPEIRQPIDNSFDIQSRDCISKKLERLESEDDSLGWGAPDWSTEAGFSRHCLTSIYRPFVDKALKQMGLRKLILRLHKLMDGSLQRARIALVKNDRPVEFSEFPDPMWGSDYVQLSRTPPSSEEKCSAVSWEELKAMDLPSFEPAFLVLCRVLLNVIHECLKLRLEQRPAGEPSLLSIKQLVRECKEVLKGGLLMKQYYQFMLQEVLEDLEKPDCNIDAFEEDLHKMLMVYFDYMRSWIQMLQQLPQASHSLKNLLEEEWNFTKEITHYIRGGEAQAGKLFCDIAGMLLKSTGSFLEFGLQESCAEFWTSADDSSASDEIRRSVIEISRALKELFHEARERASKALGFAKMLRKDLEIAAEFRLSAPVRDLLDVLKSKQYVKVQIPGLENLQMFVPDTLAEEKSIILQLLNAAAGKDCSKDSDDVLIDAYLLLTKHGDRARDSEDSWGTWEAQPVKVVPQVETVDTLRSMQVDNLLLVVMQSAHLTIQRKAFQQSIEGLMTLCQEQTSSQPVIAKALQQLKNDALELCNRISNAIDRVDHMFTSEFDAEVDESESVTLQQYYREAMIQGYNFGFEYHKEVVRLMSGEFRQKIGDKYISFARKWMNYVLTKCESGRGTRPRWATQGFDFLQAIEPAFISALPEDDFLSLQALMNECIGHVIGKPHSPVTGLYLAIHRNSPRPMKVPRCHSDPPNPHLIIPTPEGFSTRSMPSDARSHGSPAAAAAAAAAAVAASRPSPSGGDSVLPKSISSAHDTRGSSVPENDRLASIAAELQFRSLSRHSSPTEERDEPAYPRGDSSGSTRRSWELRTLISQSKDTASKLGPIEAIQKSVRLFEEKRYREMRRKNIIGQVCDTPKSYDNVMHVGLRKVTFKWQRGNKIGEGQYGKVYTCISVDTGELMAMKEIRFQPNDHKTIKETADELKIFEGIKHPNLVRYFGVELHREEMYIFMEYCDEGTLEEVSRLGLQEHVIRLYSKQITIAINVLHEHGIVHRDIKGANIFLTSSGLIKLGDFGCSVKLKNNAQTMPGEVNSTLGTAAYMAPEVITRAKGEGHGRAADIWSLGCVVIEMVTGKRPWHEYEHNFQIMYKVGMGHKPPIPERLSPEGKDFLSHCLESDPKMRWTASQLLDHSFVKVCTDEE

Study 1
Compound: CO[C@H]1CC[C@H](CNc2ccc(S(=O)(=O)NC(=O)c3ccc(N4CCN(CC5=C(c6ccc(Cl)cc6)CC(C)(C)CC5)CC4)cc3Oc3cnc4[nH]ccc4c3)cc2[N+](=O)[O-])CC1
Observed: cell-free assay
Technique: competition with immobilised ligand
Concentration: 1 µM
Measurement: remaining binding
MAP3K1 (Homo sapiens, UniProt Q13233): 100%
CDK17 (Homo sapiens, UniProt Q00537): 99%
CHUK (Homo sapiens, UniProt O15111): 100%
MAP3K4 (Homo sapiens, UniProt Q9Y6R4): 90%
EGFR (Homo sapiens, UniProt P00533, T790M): 98%
MAP3K3 (Homo sapiens, UniProt Q99759): 83%
Tyrosine-protein kinase ABL1, non-phosphorylated (ABL1, Homo sapiens, UniProt P00519, F317L): 100%

Study 2
Host: mouse
Medium: microsomes or S9
Concentration: 2 µM
Time: 0.5 h
Measurement: remaining compound
C[C@H](O)CNS(=O)(=O)C1CCc2cc(Br)ccc2C1 (stereo partly shown): 76%
Cc1ccc2c(=O)c(-c3nc(-c4ccccc4C)no3)cn(CC(=O)NC3CCc4ccccc43)c2n1 (stereo not shown): 0.555%
Cc1n[nH]c(CN2CCOc3cc(F)c(Br)cc32)n1: 11.5%
COc1ccc2c(C)c(C(=O)OC(C)C)n(C)c2c1: 46.8%
CC(C)C[C@H](C(=O)NOC(C)(C)C)N1C(=O)Nc2cc(Cl)cc(Cl)c2S1(=O)=O: 2.67%
CC(C)c1nc(NCCc2nnc3ccccn23)nc(N(C)C)n1: 0.161%

Study 3
Target: Glycogen synthase kinase-3 beta (GSK3B, Homo sapiens, UniProt P49841)
Chain of UniProt P49841 (whole entry, looked up): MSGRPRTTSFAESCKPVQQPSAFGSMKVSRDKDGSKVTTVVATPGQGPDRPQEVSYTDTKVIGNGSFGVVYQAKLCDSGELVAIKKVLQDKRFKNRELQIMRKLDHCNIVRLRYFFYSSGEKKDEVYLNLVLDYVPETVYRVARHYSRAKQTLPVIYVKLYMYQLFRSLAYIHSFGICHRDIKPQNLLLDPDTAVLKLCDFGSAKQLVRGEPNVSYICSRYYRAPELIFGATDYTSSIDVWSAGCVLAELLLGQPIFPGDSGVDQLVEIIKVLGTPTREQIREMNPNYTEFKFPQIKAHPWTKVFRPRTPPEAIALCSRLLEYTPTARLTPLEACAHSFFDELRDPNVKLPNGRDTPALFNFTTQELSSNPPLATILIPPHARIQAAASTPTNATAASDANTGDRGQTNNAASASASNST
Observed: enzyme activity
Mode: inhibitor
Concentration: 0.5 µM
Reference: control
Measurement: remaining activity
O=C(O)c1ccc2c3c1cccc3c(=O)n1c3ccccc3nc21: 100%
CN(C)c1ccc(C=C2C(=O)Nc3ccccc32)cc1: 111%
O=C(CCCc1ccc(-c2ccccc2F)cc1)Nc1ccc(O)cc1: 99.4%
COc1cc2ncnc(Nc3ccc(F)c(Cl)c3)c2cc1OCCCN1CCOCC1: 100%
OCC(O)CCON=C1C(c2c(O)[nH]c3ccccc23)=Nc2ccccc21 (stereo not shown): 12.6%
Cc1nc(-c2ccccc2)c(-c2ccncc2)o1: 105%
O=S(=O)(c1cccc2cnccc12)N1CCCNCC1: 102%
Oc1ccc(-c2nc(-c3ccncc3)c(-c3ccc(F)cc3)[nH]2)cc1: 76.6%
Cc1cccc(-c2[nH]c(C(C)(C)C)nc2-c2ccc3c(c2)OCO3)n1: 96.8%
C#Cc1cccc(Nc2ncnc3cc(OCCOC)c(OCCOC)cc23)c1: 102%
O=C(Nc1cccc(Nc2cc(Nc3cccc(C(F)(F)F)c3)ncn2)c1)C1CC1: 114%
Nc1ncnc2n[nH]c(Nc3ccc(F)cc3)c12: 101%
O=C1NC(=O)C(c2cn(CCCO)c3ncccc23)=C1c1cnccn1: 25.2%
CC(C)[C@H](CO)Nc1nc(Nc2cc(N)cc(Cl)c2)c2ncn(C(C)C)c2n1: 103%
O=C1NC(=O)C(c2cn(CCCn3ccnc3)c3ccccc23)=C1Nc1ccccc1: 14.2%
NCCNc1ncc(C(N)=O)c(Nc2cccc(C(F)(F)F)c2)n1: 96.8%
N#CC(C#N)=C(N)/C(C#N)=C/c1ccc(O)cc1: 89.5%
COc1ccc(OC)c2c(=S)c3ccccc3[nH]c12: 61.3%
COc1cc2nccc(Oc3ccc(NC(=S)NC(=O)c4ccccc4C)cc3)c2cc1OC: 97.7%
CCOC(=O)c1c(C)[nH]c(/C=C2\C(=O)Nc3ccccc32)c1C: 105%
COc1ccc(C(=O)Nc2sc3c(c2C(N)=O)CCCC3)cc1OC: 97.7%

Study 4
Organism: Sarcocystis neurona
Observed: parasite activity
Concentration: 10 µM
Time: 96 h
Measurement: activity class
CC1(C)S[C@@H]2[C@H](/N=C/N3CCCCCC3)C(=O)N2[C@H]1C(=O)O: inactive
O=C(O)c1cc(/N=N/c2ccc(S(=O)(=O)Nc3ccccn3)cc2)ccc1O: inactive
CC(=O)NCCCCCCNC(C)=O: inactive
CC(=O)SCC(Cc1ccccc1)C(=O)NCC(=O)OCc1ccccc1 (stereo not shown): inactive
Cc1cc(NS(=O)(=O)c2ccc(N)cc2)no1: inactive

Study 5
Cell line: A-375
Concentration: 100 µM
Time: 18 h
Measurement: viability
NC(=O)c1ncn([C@@H]2O[C@H](CO)[C@@H](O)[C@H]2O)c1O: 105%
CC1=C(/C=C/C(C)=C/C=C/C(C)=C/C=C/C=C(C)/C=C/C=C(C)/C=C/C2=C(C)C(=O)[C@@H](O)CC2(C)C)C(C)(C)C[C@H](O)C1=O: 94.8%
Cc1cccc(C)c1NC(=O)c1ccccc1C(=O)O: 99%
COc1ccc([C@@H]2Sc3ccccc3N(CCN(C)C)C(=O)[C@@H]2OC(C)=O)cc1: 90.7%
CCOC(=O)[N-]c1cn(N2CCOCC2)n[o+]1: 104%
CCOc1ccccc1OCCN[C@H](C)Cc1ccc(OC)c(S(N)(=O)=O)c1: 83.9%
Cn1c(=O)c2c(ncn2CCO)n(C)c1=O: 88.3%

Repeated from above (study 2):
CC(C)c1nc(NCCc2nnc3ccccn23)nc(N(C)C)n1: 0.161%
Cc1ccc2c(=O)c(-c3nc(-c4ccccc4C)no3)cn(CC(=O)NC3CCc4ccccc43)c2n1 (stereo not shown): 0.555%
COc1ccc2c(C)c(C(=O)OC(C)C)n(C)c2c1: 46.8%
Cc1n[nH]c(CN2CCOc3cc(F)c(Br)cc32)n1: 11.5%
